Assay results gathered from unrelated publications.
Each numbered part is a random draw from the data of one study; scales do not carry over between parts. Changes are numbered by the printed parent chain.

Set 1 — method: protein binding microarray; molecule type: double-stranded DNA, one strand shown; medium: in vitro; tested at: not given; baseline: not given; reading: higher = stronger binding; endpoint: E-score
Target: Histone acetyltransferase KAT6A, winged helix 2, GST fusion (KAT6A, Homo sapiens, UniProt Q92794, residues 85-181)
Notes: 8-mer, flanks averaged, mean of 2 arrays, mostly near background
Construct (chain): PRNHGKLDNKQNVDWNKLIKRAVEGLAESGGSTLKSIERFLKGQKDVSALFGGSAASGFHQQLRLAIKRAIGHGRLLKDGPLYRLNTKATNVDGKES
ACATTGAC: -0.108
ACCGGTCC: 0.072
GAAGGCAC: 0.21
GGCATTGA: 0.0642
ATTCGGCA: 0.0693
ACTTTGCC: -0.0176
GAACCGGC: 0.104
ATCCTCTG: -0.11
AGGTAAGA: -0.0242
AAGGACTC: -0.178
CACTACGG: 0.0112
AAGTTCGC: 0.0576
CTTGTGCA: 0.0534
AAGAATTA: -0.0341
CGGTCGGA: 0.00125
AACCTGCC: 0.0945
TCCGTAAA: 0.0492
TGAGCTAA: -0.0855
ATCCGAAA: 0.047

Set 2 — method: RNA Bind-n-Seq; molecule type: RNA; medium: in vitro; tested at: 365 nM; baseline: no-protein control; reading: higher = stronger binding; endpoint: RBNS enrichment (R)
Target: RNA binding protein fox-1 homolog 2, RRM domain, GST-SBP tag (RBFOX2, Homo sapiens, UniProt O43251-10, residues 100-194)
Notes: natural RNA segment, single round, ends assumed
Construct (chain): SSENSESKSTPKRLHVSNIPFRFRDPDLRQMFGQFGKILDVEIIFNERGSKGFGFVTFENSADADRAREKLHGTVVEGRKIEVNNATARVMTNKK
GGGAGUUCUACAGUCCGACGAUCUUGCAAAGUAUAUAAUAUCUAAGAGGAAAGGUUUUGUCAUCCCAGCGUUGUCCACUUUGUGGGGCUUUGUAGGUAGACGGAGCCACACUACAGGCAGGGUAUGAGCAGAGUGGAAUUCUCGGGUGCCAA: 0.785
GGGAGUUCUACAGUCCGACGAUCUUACUCUUAGAACAGAUACAACUUUAAAGGGUGUCACAACCAAAGGUGGAGUGGAGUGUGGCAUGCAGGCUCUGUGGGGGCGCCAGUGCUCAGUUAGUUGUUGGUUAUUUUGGAAUUCUCGGGUGCCAA: 2.12
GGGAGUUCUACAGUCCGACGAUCUGUCGCCAGUUCUCACUGUCUGUCAGCUCACUGAGCUGCCCUUCAUCCAUGGUCCUUGAGCUCCAGAGCGGAGGGAGAUUCUCUCAGCAGGCCCAUCUCACAAAGACUGGUGGAAUUCUCGGGUGCCAA: 0.262
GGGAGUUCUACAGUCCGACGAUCAUCCACCCGCCUCACCCUCCCAAAAUGCUGGGAUUACAGGCGUAAGCCACUGCACCUGGCGGGGUCUUGCUUAUUUUAAAAGAAAUAUUCUGAUUCAUAUUUUAGGACUUUGGAAUUCUCGGGUGCCAA: 0.509
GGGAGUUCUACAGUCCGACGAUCUUGGAAUGAAGGCUGCAGGCACUGGUUGCAGACGUCUUUAUAGGCAGUCACCAUGUUGUCAAACCUUAAUAAUGCACCUCAUGUAUUAGUCACAAUAAAAAUCAGAACUCUGGAAUUCUCGGGUGCCAA: 0.378
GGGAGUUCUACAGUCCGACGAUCUUGAACGCUUGCUUUUAGAGAGAAAACAAUAUAGCCCCCUACCCUUUUCCCAAUCCUUUGCCCUCAAAUCAGUGACCCAAGGGAGGGGGGGAUUUAAAGGGAAGGAGUGGUGGAAUUCUCGGGUGCCAA: 4.96
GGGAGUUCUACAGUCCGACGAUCACUAGAGGUUCCCUUUGCAUGUUGCACUCUGUUCUCAUUUGGAGAUUGAACUCUGAAUUAACACAGUAUUCAUUCAUCUGUGUUAUUUUGUAAAAAUAACUGUAGCUUAUUGGAAUUCUCGGGUGCCAA: 21.7
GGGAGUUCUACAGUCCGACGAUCCUCUGUCCCUCCUUCCUAGAUAGGGAUGAUCAGAAGGUAGCCAUCUCUUCUUGCAGCUGCCUGGCCAGGAUCUAUGGCUUAGGAUCUAUGGCCACCCCUGCAGGGGAGCUUGGAAUUCUCGGGUGCCAA: 0.429

Set 3 — target: CCNA2, cyclin fold, Cln2 fusion (human); method: yeast growth competition, sequencing; medium: yeast; notes: strong parent motif; baseline: not given; reading: higher = stronger binding; endpoint: normalised enrichment score
Starting sequence: RBL2 docking peptide (human); STTRRRLFVENDS
STTRRRLEVENDS [F8E]: 0.918
STTRRRLFTENDS [V9T]: 6.63
RTTRRRLFVENDS [S1R]: 6.56
STTRRRLFVENVS [D12V]: 5.68
PTTRRRLFVENDS [S1P]: 5.08
STTRRRLTVENDS [F8T]: 0.307
STTRRRLFVENDD [S13D]: 6.31
SYTRRRLFVENDS [T2Y]: 5.24
STTRRWLFVENDS [R6W]: 1.11
STTRRREFVENDS [L7E]: 0.136
STTRRRSFVENDS [L7S]: 0.0832
STTRRRLFFENDS [V9F]: 6.85
STTRRRLFVANDS [E10A]: 4.84
STTRYRLFVENDS [R5Y]: 1.14
SHTRRRLFVENDS [T2H]: 6.26
MTTRRRLFVENDS [S1M]: 5.37
STTRRRLFVENWS [D12W]: 4.84
STTRRRLFVENDQ [S13Q]: 4.66

Set 4 — method: RNA Bind-n-Seq; molecule type: RNA; medium: in vitro; tested at: not given; notes: RNA with constant flanks, ends assumed; baseline: input RNA pool; reading: higher = stronger binding; endpoint: bound/input enrichment
Target: RING finger protein unkempt homolog, zinc fingers 1-6, GST-SBP tag (UNK, Homo sapiens, UniProt Q9C0B0, residues 30-357)
Target sequence (chain): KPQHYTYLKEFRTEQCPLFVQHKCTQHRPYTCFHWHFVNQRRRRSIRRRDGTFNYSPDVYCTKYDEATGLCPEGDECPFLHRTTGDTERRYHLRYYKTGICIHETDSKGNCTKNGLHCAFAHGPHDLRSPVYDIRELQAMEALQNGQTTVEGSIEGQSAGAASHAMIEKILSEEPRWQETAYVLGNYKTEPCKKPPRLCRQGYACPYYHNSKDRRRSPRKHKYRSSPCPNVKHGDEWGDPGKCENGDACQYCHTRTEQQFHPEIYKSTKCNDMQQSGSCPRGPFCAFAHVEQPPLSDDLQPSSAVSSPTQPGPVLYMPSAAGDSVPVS
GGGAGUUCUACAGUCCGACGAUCGACAUCCCACUGUUUCCAGUGCAGUCCAAGUACAUGGAUGUGGUCAAGGAGCGGAUCCGUCCCGCCCGACAGAUUGAAAAAGCUGAAUACCGGAACUUCCAGGCUUGUCUGCACAACUCACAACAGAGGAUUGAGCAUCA: 0.114 ratio
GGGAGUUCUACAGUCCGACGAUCUACGACUACUCGCCCUAUGGCUAUUACGGCUACGGCCCCGGCUACGACUACAGUCAGGGCCGUACAAACUACGGCAAGAGCCAGCGACGUGGUGGCCAUCAGAAUAACUACAAGCCAUACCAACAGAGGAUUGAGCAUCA: 0.0835 ratio
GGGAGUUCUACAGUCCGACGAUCUGUCUUGAUGACACUACAGUAAAGUUUGAAAUAUGGGAUACAGCUGGUCAAGAACGAUACCACCGCCCCGCACCAAUGUACUACAGAGGAGCACAAGCAGCCAUAGUUGUAUAUGAUAUCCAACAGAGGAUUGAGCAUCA: 0.544 ratio
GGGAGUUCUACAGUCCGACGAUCCAUGUGACUGUGAAGAAGCUGUUUGUUGGUGGAAUUAAGGAAGAUACUGAGGAACACCACCUCCGAGAUUACUUUGAAGAGUAUGGAAAAAUUGAUACUAUUGAAAUAAUUACCGAUAGGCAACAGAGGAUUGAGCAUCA: 0.228 ratio
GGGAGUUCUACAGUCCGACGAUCACACCUGCUUUAUAUAUGCUUUCUCCUUUCAGUCCUCUAAGAAGAAUAUCUAUUAAGAUUUCCGUACACUCCUUAUUCAGCAUGCUCAUCAUGUGCACUAUUCUGACAAACUGCAUAUUUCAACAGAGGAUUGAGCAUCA: 0.422 ratio
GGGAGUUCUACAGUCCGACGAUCCCUGCCUCACCAGUUGGUACACUGUUUUCUGAAAGAGGUGGGAUCCAAAAGAGCUGUUUCCCGCUGCACUCCAAGCAUCUGAGACUUUGGGCACAAGGACACUUUUCUUUUCUUUUUUUUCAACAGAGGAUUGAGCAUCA: 0.321 ratio
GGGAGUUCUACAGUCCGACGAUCGUUGAUGCAGACUCUCUUGCCGAGGUAGAUGAUGGAAUGGCUUCCCGUCAGGGUUCUCCCAGCCGAACCUUUGGUCUGAGUCUGUCUACGGAUUCUUCGGCAGUAGGGGCUGUUGCUUCUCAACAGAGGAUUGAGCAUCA: 0.363 ratio
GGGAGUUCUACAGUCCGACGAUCGACAUCCUCUAUGCCCGGCAGAAGGUUGUUGUCACGGCAAAAGCCUUUGGCCUACAAGCCACCGAUCUUGUGUACAUUGACUUCCGAGAUGAAGACGGACUUCUCAGACAGUCAAGGGAACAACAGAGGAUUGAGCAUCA: 0.239 ratio

Set 5 — method: DHFR PCA, deep sequencing; medium: yeast; added: (+)-ABA 58 µM; baseline: wild-type fitted maximum; reading: higher = stronger binding; endpoint: relative binding score
Target: ABI1, truncated, D143A, DHFR fusion (Arabidopsis thaliana)
Notes: methotrexate growth selection, single substitutions
Starting sequence: PYL1, truncated, DHFR fusion (Arabidopsis thaliana); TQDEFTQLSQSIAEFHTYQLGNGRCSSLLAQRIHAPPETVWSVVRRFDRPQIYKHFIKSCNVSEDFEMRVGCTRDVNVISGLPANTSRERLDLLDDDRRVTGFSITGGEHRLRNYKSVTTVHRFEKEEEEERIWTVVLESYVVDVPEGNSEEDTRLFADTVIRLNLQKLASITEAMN
S117E: 2.75%
I52S: 83.7%
L164D: -4.22%
A158E: 5.21%
D3A: 90.2%
A35E: 9.75%
S140L: 0.543%
H122L: 33.1%
E147L: 77.9%
V143I: 19%
S63D: 87.7%
Q167Y: 59.8%
N85I: 86.5%
E152Y: 70.7%
S9W: 72.3%
K126R: 93.9%
D3H: 80.2%

Some of these lines once more (set 1):
ATCCGAAA: 0.047
ACATTGAC: -0.108
TGAGCTAA: -0.0855
ACCGGTCC: 0.072
TCCGTAAA: 0.0492
AAGGACTC: -0.178
AAGTTCGC: 0.0576
CACTACGG: 0.0112
CTTGTGCA: 0.0534
